{"data": "Measurements collected from several papers", "note": "Each line is one published result; not all experiments were run side by side. Several values in a cell are separate wells, animals, samples, runs or records. ± gives the spread as reported."}
{"SMILES": "Cc1[nH]nc2c1N=C(c1ccccc1Cl)c1cnc(N3CCOCC3)cc1N2", "system": "nude mouse HCC1806 xenograft, plasma", "setting": "oral, 5 mg/kg once daily", "Tmax": "60 min"}
{"SMILES": "CC(C)OCCOCc1ccc(OCC(O)CN(N=O)C(C)C)cc1 (centres unmarked)", "system": "mouse NMRI, blood", "setting": "oral, repeated dosing", "Tmax": "30 min"}
{"SMILES": "O=C(NS(=O)(=O)c1cccs1)c1cc2ccccc2n1Cc1ccc(Br)c2ccccc12", "system": "mouse, plasma", "setting": "oral, 1 mg/kg", "Tmax": "15 min"}
{"SMILES": "CN[C@H](CC(C)C)C(=O)N[C@H]1C(=O)N[C@@H](CC(N)=O)C(=O)N[C@H]2CN[C@H]3C(=O)N[C@H](C(=O)N[C@H](C(=O)NCCCNC(=N)N)c4cc(O)cc(O)c4-c4cc3ccc4O)[C@H](O)c3ccc(c(Cl)c3)Oc3cc2cc(c3O[C@@H]2O[C@H](CO)[C@@H](O)[C@H](O)[C@H]2O[C@H]2C[C@](C)(NCc3ccc(-c4ccc(Cl)cc4)cc3)[C@H](O)[C@H](C)O2)Oc2ccc(cc2Cl)[C@H]1O", "system": "mouse", "setting": "intravenous, 10 mg/kg", "Tmax": "16.8 min"}
{"SMILES": "O=C(Cc1ccc(OCc2ccccc2)cc1)NC1(C(=O)O)CCN(C(=O)c2ccc(-c3cccc(Cl)c3)cc2)CC1", "system": "mouse BALB/c female", "setting": "intraperitoneal, 20 mg/kg", "Tmax": "40 ± 17.3 min"}
{"SMILES": "O=S(=O)(N[C@H]1CCC[C@@H](N2c3ccccc3CCc3ccccc32)[C@@H]1O)c1ccc(OC(F)(F)F)cc1", "system": "mouse, plasma", "setting": "oral, 100 mg/kg, solution", "Tmax": "120 min"}
{"SMILES": "C/C(N)=N/C(=N\\S(=O)(=O)c1ccc(C(F)(F)F)cc1)N1C[C@H](c2ccccc2)C(c2ccc(Cl)cc2)=N1", "system": "C57BL/6 mouse, adipose tissue", "setting": "intravenous, 10 mg/kg", "Tmax": "120 min"}
{"SMILES": "CC[C@H](C)[C@H](NC(=O)[C@H](CCCNC(=N)N)NC(=O)[C@H](Cc1c[nH]cn1)NC(=O)[C@@H](N)[C@@H](C)O)C(=O)N[C@@H](CC(C)C)C(=O)N[C@@H](CCCNC(=N)N)C(=O)N[C@@H](CCCNC(=N)N)C(=O)N[C@@H](CC(C)C)C(=O)N[C@@H](Cc1ccccc1)C(=O)N[C@@H](CC(N)=O)C(=O)N[C@@H](CC(C)C)C(=O)N[C@@H](CS)C(N)=O", "system": "male C57BL/6J mouse, plasma", "setting": "intraperitoneal", "Tmax": "1 min"}
{"SMILES": "CN[C@H](CC(C)C)C(=O)N[C@H]1C(=O)N[C@@H](CC(N)=O)C(=O)N[C@H]2C(=N)N[C@H]3C(=O)N[C@H](C(=O)N[C@H](C(=O)NCCC[N+](C)(C)C)c4cc(O)cc(O)c4-c4cc3ccc4O)[C@H](O)c3ccc(c(Cl)c3)Oc3cc2cc(c3O[C@@H]2O[C@H](CO)[C@@H](O)[C@H](O)[C@H]2O[C@H]2C[C@](C)(NCc3ccc(-c4ccc(Cl)cc4)cc3)[C@H](O)[C@H](C)O2)Oc2ccc(cc2Cl)[C@H]1O", "system": "mouse", "setting": "intravenous, 50 mg/kg", "Tmax": "13.2 min"}
{"SMILES": "Cc1nn(-c2nc3c(F)cc(F)cc3s2)c(O)c1C(c1ccc(C(F)(F)F)cc1)c1c(C)nn(-c2nc3c(F)cc(F)cc3s2)c1O", "system": "ICR mouse, plasma", "setting": "oral, 50 mg/kg", "Tmax": "30 min and 60 min"}
{"SMILES": "Cc1ncsc1-c1ccc(CNC(=O)[C@@H]2C[C@@H](O)CN2C(=O)[C@@H](NC(=O)COCC(C)(COCCOCCOCCNC(=O)C[C@@H]2N=C(c3ccc(Cl)cc3)c3c(sc(C)c3C)-n3c(C)nnc32)COCCOCCOCCNC(=O)C[C@@H]2N=C(c3ccc(Cl)cc3)c3c(sc(C)c3C)-n3c(C)nnc32)C(C)(C)C)cc1", "system": "C57BL/6 mouse male, plasma", "setting": "subcutaneous, 5 mg/kg", "Tmax": "240 min"}
{"note": "For quick reference, copied from above:"}
{"SMILES": "O=S(=O)(N[C@H]1CCC[C@@H](N2c3ccccc3CCc3ccccc32)[C@@H]1O)c1ccc(OC(F)(F)F)cc1", "system": "mouse, plasma", "setting": "oral, 100 mg/kg, solution", "Tmax": "120 min"}
{"SMILES": "CC(C)OCCOCc1ccc(OCC(O)CN(N=O)C(C)C)cc1 (centres unmarked)", "system": "mouse NMRI, blood", "setting": "oral, repeated dosing", "Tmax": "30 min"}
